# Assay results collected from several papers.
# Parts stem from different laboratories: compare values within a part only. ± gives the spread as reported.
# UniProt Q13131, sequence (whole entry, looked up): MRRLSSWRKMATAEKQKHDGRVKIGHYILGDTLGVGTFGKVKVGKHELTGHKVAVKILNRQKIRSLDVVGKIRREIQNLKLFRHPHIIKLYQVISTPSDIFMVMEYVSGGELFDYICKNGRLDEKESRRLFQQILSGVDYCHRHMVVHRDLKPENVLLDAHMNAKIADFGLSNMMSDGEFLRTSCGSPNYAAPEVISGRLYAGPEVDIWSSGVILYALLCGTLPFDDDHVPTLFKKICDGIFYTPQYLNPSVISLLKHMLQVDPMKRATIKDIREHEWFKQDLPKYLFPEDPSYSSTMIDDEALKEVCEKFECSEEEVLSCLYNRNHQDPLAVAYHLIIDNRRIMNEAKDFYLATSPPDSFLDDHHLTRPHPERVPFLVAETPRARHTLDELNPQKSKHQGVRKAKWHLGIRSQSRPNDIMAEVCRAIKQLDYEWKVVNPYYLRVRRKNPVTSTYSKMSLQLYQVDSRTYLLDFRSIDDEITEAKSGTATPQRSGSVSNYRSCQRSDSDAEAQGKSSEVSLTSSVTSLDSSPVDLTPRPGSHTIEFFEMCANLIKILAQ
# UniProt Q15835, sequence (whole entry, looked up): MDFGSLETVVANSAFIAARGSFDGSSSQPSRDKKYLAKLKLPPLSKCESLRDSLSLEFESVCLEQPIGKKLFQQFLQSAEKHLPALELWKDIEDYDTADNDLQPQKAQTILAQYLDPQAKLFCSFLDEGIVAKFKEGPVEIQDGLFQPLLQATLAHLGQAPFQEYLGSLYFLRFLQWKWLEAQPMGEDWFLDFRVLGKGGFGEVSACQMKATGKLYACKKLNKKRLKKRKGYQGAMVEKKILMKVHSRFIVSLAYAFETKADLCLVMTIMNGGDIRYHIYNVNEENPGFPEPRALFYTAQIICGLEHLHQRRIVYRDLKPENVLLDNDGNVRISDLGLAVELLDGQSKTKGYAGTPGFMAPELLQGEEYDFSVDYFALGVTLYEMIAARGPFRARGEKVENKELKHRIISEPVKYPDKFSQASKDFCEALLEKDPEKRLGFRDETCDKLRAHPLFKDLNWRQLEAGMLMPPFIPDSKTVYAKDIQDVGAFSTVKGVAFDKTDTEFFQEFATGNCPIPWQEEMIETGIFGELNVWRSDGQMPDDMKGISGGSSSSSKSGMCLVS
# UniProt Q04771, sequence (whole entry, looked up): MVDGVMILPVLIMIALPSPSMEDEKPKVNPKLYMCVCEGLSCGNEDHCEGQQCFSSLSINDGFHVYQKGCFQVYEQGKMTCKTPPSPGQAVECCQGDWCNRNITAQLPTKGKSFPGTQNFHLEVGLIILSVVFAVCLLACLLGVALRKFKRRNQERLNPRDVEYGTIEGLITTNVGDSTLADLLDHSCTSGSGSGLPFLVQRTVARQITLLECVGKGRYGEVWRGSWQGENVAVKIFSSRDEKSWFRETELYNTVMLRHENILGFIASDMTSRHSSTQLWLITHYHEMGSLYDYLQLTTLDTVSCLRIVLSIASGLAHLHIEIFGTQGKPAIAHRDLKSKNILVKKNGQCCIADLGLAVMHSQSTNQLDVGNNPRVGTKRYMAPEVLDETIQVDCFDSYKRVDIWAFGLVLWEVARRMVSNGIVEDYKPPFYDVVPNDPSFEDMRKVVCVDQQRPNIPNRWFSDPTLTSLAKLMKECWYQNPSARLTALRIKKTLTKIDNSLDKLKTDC
# UniProt P11802, sequence (whole entry, looked up): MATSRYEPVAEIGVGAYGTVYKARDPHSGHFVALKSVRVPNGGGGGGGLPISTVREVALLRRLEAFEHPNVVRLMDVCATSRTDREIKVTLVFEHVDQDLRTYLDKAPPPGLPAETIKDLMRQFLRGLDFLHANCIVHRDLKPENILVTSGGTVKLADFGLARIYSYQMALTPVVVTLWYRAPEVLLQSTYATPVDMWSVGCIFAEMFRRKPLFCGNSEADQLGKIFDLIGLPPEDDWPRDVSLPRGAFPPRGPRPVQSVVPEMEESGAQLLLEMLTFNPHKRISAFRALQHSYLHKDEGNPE
# UniProt Q8N5S9, sequence (whole entry, looked up): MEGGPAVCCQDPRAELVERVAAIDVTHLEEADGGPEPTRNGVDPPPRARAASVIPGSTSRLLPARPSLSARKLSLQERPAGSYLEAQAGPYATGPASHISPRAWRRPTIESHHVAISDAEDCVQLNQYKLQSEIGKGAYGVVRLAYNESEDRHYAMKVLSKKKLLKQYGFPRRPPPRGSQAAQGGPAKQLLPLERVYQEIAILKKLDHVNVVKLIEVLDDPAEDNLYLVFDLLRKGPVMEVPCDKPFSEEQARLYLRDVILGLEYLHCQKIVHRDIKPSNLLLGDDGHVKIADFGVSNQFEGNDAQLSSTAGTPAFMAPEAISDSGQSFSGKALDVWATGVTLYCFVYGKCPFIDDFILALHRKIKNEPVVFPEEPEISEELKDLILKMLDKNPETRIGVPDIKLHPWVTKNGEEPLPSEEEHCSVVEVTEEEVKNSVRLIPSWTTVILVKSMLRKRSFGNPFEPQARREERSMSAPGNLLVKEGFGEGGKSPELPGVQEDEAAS
# UniProt Q8WU08, sequence (whole entry, looked up): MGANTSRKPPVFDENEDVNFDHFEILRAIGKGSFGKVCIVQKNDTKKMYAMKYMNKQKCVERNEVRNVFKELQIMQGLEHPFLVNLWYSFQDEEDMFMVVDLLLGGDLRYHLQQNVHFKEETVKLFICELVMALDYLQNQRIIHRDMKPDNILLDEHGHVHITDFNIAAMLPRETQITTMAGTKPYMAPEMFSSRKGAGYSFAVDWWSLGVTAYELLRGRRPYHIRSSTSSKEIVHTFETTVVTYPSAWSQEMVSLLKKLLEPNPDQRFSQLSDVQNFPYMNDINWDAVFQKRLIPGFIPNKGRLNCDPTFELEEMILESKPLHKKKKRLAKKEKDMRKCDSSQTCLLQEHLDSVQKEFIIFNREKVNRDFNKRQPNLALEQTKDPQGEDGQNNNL
# UniProt O43318, sequence (whole entry, looked up): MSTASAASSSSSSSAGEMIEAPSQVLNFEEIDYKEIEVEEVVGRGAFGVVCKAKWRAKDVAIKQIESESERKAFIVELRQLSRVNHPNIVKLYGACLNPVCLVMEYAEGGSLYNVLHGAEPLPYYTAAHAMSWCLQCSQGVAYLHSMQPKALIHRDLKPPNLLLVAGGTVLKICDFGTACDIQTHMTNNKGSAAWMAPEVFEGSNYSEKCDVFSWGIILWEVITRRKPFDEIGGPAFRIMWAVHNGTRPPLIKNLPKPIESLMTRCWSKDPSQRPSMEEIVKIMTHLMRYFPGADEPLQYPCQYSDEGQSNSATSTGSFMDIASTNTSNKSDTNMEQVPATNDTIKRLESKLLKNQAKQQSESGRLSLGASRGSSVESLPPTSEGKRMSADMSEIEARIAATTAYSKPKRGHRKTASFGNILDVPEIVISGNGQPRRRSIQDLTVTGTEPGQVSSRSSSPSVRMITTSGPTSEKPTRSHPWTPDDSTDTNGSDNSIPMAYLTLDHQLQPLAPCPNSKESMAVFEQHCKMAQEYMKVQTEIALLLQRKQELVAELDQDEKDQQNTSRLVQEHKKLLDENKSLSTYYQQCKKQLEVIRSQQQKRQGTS
# UniProt P37023, sequence (whole entry, looked up): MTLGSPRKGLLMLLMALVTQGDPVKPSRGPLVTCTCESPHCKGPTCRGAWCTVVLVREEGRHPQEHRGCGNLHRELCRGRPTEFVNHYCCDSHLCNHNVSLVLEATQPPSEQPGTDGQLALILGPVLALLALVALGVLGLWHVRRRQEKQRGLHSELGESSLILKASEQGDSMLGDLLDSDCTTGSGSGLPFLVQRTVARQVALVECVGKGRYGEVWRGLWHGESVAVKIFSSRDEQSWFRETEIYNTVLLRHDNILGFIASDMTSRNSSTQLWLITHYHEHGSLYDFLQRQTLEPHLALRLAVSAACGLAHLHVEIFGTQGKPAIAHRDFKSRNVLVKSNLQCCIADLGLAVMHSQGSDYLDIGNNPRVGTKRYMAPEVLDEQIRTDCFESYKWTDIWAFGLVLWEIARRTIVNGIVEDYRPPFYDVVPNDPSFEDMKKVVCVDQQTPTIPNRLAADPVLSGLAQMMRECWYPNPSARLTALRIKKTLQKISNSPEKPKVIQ
# UniProt P07947, sequence (whole entry, looked up): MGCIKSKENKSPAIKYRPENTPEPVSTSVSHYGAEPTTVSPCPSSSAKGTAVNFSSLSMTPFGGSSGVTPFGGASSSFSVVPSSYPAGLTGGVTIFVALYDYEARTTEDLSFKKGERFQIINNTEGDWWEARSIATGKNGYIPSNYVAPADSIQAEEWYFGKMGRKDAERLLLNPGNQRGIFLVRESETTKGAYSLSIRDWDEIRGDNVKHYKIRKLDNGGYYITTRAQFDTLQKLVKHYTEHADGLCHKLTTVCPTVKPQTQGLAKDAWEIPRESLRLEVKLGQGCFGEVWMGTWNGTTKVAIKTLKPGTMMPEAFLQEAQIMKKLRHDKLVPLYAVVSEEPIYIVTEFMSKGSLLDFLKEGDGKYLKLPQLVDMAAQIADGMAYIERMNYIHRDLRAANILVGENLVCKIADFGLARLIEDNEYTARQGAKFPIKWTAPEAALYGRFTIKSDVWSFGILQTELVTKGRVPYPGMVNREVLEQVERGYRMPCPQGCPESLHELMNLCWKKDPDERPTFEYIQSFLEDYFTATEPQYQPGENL
# UniProt P51451, sequence (whole entry, looked up): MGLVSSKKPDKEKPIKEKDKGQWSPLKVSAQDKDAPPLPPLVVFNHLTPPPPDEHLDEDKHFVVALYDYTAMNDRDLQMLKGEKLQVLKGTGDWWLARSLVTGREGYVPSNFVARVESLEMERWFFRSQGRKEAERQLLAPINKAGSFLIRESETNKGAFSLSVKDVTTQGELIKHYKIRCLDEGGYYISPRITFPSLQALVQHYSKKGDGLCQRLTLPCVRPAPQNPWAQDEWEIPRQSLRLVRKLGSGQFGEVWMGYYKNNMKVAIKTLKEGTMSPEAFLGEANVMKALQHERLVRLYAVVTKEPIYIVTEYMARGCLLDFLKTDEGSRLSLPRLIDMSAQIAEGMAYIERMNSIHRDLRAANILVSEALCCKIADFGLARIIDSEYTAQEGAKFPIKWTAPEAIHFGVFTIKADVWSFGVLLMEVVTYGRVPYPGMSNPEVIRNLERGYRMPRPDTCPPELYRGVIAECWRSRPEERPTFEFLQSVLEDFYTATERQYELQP

# Block 1 — cell line: HaCaT; tested at: 100 µM; time: 18 h
SMILES,viability
CCCCCCCCc1ccc(CCC(N)(CO)CO)cc1,19.4%
CC(=O)N(O)CCCCCNC(=O)CCC(=O)N(O)CCCCCNC(=O)CCC(=O)N(O)CCCCCN,114%
CCOC(CN1CCN(CC(C)C(=O)c2ccccc2)CC1)c1ccccc1 (centres unmarked),81.6%
C/C=C1\NC(=O)[C@H]2CSSCC/C=C/[C@H](CC(=O)N[C@H](C(C)C)C(=O)N2)OC(=O)[C@H](C(C)C)NC1=O,18.7%
Cc1cc(=O)n(-c2ccccc2)n1C,111%
C=C1CC[C@@H]2[C@](C)(CO)[C@H](O)CC[C@@]2(C)[C@@H]1C/C=C1/C(=O)OC[C@H]1O,78.8%
CN(C)[C@@H](CCOc1cccc2ccccc12)c1ccccc1,15.7%
O=C1O[C@H]([C@@H](O)CO)C(O)=C1O,115%

# Block 2 — organism: Sarcocystis neurona; observed: parasite growth; tested at: 10 µM; setting: first screen; relative to: untreated
SMILES,log2 fold change
COc1cc(N)c(Cl)cc1C(=O)NC1CCN(CCCOc2ccc(F)cc2)CC1OC.O (centres unmarked),-0.48
OC[C@H]1O[C@@H](n2cnc3c(NC4CCCC4)nc(Cl)nc32)[C@H](O)[C@@H]1O,0.12
CC(C)c1ccc2c(c1)c(SC(C)(C)C)c(CC(C)(C)C(=O)O)n2Cc1ccc(Cl)cc1,-0.23
CC(C)NCC(O)COc1cccc2ccccc12.Cl (centres unmarked),0.26
Nc1ncnc2c1ncn2[C@@H]1O[C@H](CO)C[C@H]1O,0.25
Cl.NC1CCN(c2cccc(Cl)n2)CC1,0.21
C[C@]12CCC(=O)C=C1CC[C@@H]1[C@@H]2CC[C@@]2(C)[C@H]1CC[C@]2(O)C(=O)CO,-0.16

# Block 3 — observed: cell-free assay; technique: competition with immobilised ligand; tested at: 1 µM
# SMILES: CCS(=O)(=O)c1cc2cc(C[C@@](O)(CC(C)(C)c3ccc(F)cc3C(N)=O)C(F)(F)F)[nH]c2cn1
target,remaining binding [%]
"FGFR2 (Homo sapiens, UniProt P21802)",95
"ACVRL1 (Homo sapiens, UniProt P37023)",100
"FLT4 (Homo sapiens, UniProt P35916)",90
"CAMKK1 (Homo sapiens, UniProt Q8N5S9)",87
"SIK3 (Homo sapiens, UniProt Q9Y2K2)",81
"PRKAA1 (Homo sapiens, UniProt Q13131)",100
"ACVR1 (Homo sapiens, UniProt Q04771)",100
"YES1 (Homo sapiens, UniProt P07947)",100
"MAP3K5 (Homo sapiens, UniProt Q99683)",100
"MAP3K7 (Homo sapiens, UniProt O43318)",92
"STK32A (Homo sapiens, UniProt Q8WU08)",77
"GRK1 (Homo sapiens, UniProt Q15835)",100
"PIK3CA (Homo sapiens, UniProt P42336, E542K)",74
"Cyclin-dependent kinase 4, with cyclin D3 (CDK4, Homo sapiens, UniProt P11802)",100
"BLK (Homo sapiens, UniProt P51451)",100

# Block 4 — observed: kinase activity
# SMILES: COc1cc(C(=O)N2CCC(N3CCN(C)CC3)CC2)ccc1Nc1ncc2c(n1)N(C)c1ccccc1C(=O)N2C
target,setting,remaining activity
LKB1,1 µM,78%
JNK1,10 µM,96 ± 3%
CLK2,1 µM,76 ± 4%
JNK2,10 µM,98 ± 2%
HIPK1,10 µM,104 ± 13%

# A few entries again (block 2):
SMILES,log2 fold change
OC[C@H]1O[C@@H](n2cnc3c(NC4CCCC4)nc(Cl)nc32)[C@H](O)[C@@H]1O,0.12
CC(C)c1ccc2c(c1)c(SC(C)(C)C)c(CC(C)(C)C(=O)O)n2Cc1ccc(Cl)cc1,-0.23
CC(C)NCC(O)COc1cccc2ccccc12.Cl (centres unmarked),0.26
C[C@]12CCC(=O)C=C1CC[C@@H]1[C@@H]2CC[C@@]2(C)[C@H]1CC[C@]2(O)C(=O)CO,-0.16
COc1cc(N)c(Cl)cc1C(=O)NC1CCN(CCCOc2ccc(F)cc2)CC1OC.O (centres unmarked),-0.48
Cl.NC1CCN(c2cccc(Cl)n2)CC1,0.21
